Experimental data collected from several papers.
“And” joins repeats or separate records; there may be more than shown. ± marks the error that the study gave. In brackets after ≈: the same amount, converted by molar mass.

CSCC[C@H](NC(=O)[C@H](CC(C)C)NC(=O)[C@@H](NC(=O)[C@H](Cc1ccccc1)NC(=O)[C@H](CCCCN)NC(=O)[C@H](CCCNC(=N)N)NC(=O)[C@@H](NC(=O)[C@H](Cc1ccc(O)cc1)NC(=O)[C@H](CCCNC(=N)N)NC(=O)[C@@H](N)CCCNC(=N)N)C(C)C)C(C)C)C(=O)N[C@@H](CCCNC(=N)N)C(=O)O has an MBC of 32 µg/mL (Micrococcus luteus; NCTC 2665).
The MLC of CNC(C)C1CCC(N)C(OC2C(N)CC(N)C(OC3OCC(C)(O)C(NC)C3O)C2O)O1 (centres unmarked) is reported as 2 µg/mL (≈ 4.19 µM) (Bacillus subtilis; broth microdilution).
With O=[N+]([O-])c1cc2c(ccc3cc(Br)ccc32)o1 the MIC90 was 0.25 µg/mL (≈ 0.856 µM) (Mycobacterium marinum; REMA; ATCC BAA-535).
For C[N+]1(C)C2CCC1CC(OC(=O)c1c[nH]c3ccccc13)C2.[I-] (centres unmarked), the fluorescein ingestion was -12.4% (Drosophila melanogaster; liquid food feeding; 40 µg/mL, first instar larvae; reference: solvent).
For Cl.N=C(CC(O)c1cc2c(F)cc(F)cc2c2cc(C(F)(F)F)ccc12)Nc1ccc(F)c(F)c1 (centres unmarked), “mean survival time” read 28 days (Plasmodium berghei; Peters test; ANKA, mice; oral, 4 x 30 mg/kg).
Nc1ncnc2c1ncn2[C@@H]1O[C@@H]2COP(=O)(O)O[C@H]3[C@@H](O)[C@H](n4cnc5c(=O)[nH]cnc54)O[C@@H]3COP(=O)(O)O[C@H]2[C@H]1O has a fold enrichment of 4.92 (West Nile virus; RNA sequencing Reactome analysis, item: Antigen processing-Cross presentation (R-HSA-1236975); HFF-1; concentration not given, upregulated pathways, with: West Nile virus infection; reference: WNV-infected without compound).
For CCCCc1ccc(CNc2nc(N(C)C)nc(N(C)C)c2/N=N/c2ccc(Cl)cc2)cc1, the mortality was 83.3% (Plutella xylostella; leaf dipping; 50 mg/L).
For c1ccc2c(-c3nccs3)c[nH]c2c1, the IC50 was 11300 nM (Trypanosoma cruzi; [3H]uracil incorporation; amastigotes in rat L6E9 myoblasts; 72 h).
With COc1cc(NC(=O)Cn2ccc3cc(F)c(-c4cnn(C)c4)cc32)cc(OC)c1OC the IC50 was 4.7 nM (Plasmodium falciparum; parasite growth; Dd2-B2 parent).
The inhibition of Cc1ccc(NNC(=O)c2nnc(CC34CC5CC(CC(C5)C3)C4)o2)cc1 is reported as 100% (Botryosphaeria dothidea; fungal growth, inhibitor; 50 µg/mL).
CC[C@H](C)[C@H](NC(=O)[C@H](C)NC(=O)[C@H](CCCCN)NC(=O)[C@H](CC(C)C)NC(=O)[C@H](C)NC(=O)[C@@H](NC(=O)[C@H](Cc1c[nH]cn1)NC(=O)[C@H](CC(C)C)NC(=O)[C@@H](NC(=O)[C@@H](NC(=O)[C@H](CCCCN)NC(=O)[C@H](C)NC(=O)[C@H](C)NC(=O)[C@H](CO)NC(=O)[C@H](CCCCN)NC(=O)[C@H](Cc1ccccc1)NC(=O)[C@@H](NC(=O)[C@H](CCCCN)NC(=O)[C@H](CC(C)C)NC(=O)[C@H](Cc1ccccc1)NC(=O)[C@H](CO)NC(=O)[C@H](CCCCN)NC(=O)[C@H](Cc1c[nH]c2ccccc12)NC(=O)[C@H](CCCCN)NC(C)=O)[C@@H](C)O)[C@@H](C)O)C(C)C)[C@@H](C)O)C(=O)N[C@@H](CO)C(=O)N[C@@H](CO)C(N)=O: “MIC geometric mean” 4 µg/mL (≈ 1.36 µM) (Pseudomonas aeruginosa; ATCC 27853).
Cn1c(=O)ccc2ccc(F)c(CCNC[C@H]3CN(c4cnc5c(n4)NC(=O)CO5)C(=O)O3)c21 gave an MIC50 of less than 0.015 µg/mL (Neisseria gonorrhoeae).
CCOC(=O)COc1ccc2ccc3oc([N+](=O)[O-])cc3c2c1 has an MIC90 of 0.016 µg/mL (≈ 0.0507 µM) (Mycobacterium marinum; REMA; ATCC BAA-535).
For CNC(=O)c1cc(Cl)cc(C)c1NC(=O)c1cc(Br)nn1-c1ncccc1Cl, the larval viability was 12.1% and 7.5% and 6.1% (Plutella xylostella; Raphanus sativus field plot; 25 ppm, 72 h, 5% water-dispersible granule).
Under “LS mean difference vs placebo”, CS(=O)(=O)CCCn1c(Cn2c(=O)n(CC(F)(F)F)c3ccncc32)cc2cc(Cl)ccc21 is recorded as -0.3 log10 copies/mL (respiratory syncytial virus; RT-qPCR; hospitalized infants 1-24 months, nasal swab; oral, 6, 4.5 or 3 mg/kg daily, day 5, mid dose by age cohort; reference: placebo).
With COC(=O)[C@@H](N)[C@@H](C)OP1(=O)CO[C@@H](Cn2cnc3c(N)ncnc32)CO1 (some centres unmarked) the IC50 was 620 nM (human cytomegalovirus; viral replication).
With Cc1c([N+](=O)[O-])oc2ccc3ccccc3c12 the MIC90 was 0.0625 µg/mL (≈ 0.275 µM) (Mycobacterium marinum; REMA; ATCC BAA-535).
With CO[C@H]1[C@H](O[C@H]([C@H]2O[C@@H](n3ccc(=O)[nH]c3=O)[C@H](O)[C@@H]2O)[C@H](NCCCNC(=O)[C@@H](NC(=O)[C@@H](NC(=O)N[C@H](C(=O)O)C(C)C)[C@@H]2CCN=C(N)N2)[C@@H](OC(=O)CCCCCCCCCCCCN(O)C(=N)N)C(C)C)C(=O)O)O[C@H](CN)[C@H]1O the MIC90 was 6.4 ± 0.098 µg/mL (≈ 5.27 µM) (Bacillus subtilis; microplate alamar blue; ATCC 6051).
Cc1c2c(nn1C)CSCc1cc(n(C)n1)CSc1cc(c3ccccc3c1)OCCCc1c(C(=O)O)n(C)c3c-2c(Cl)ccc13 — result for “log2 fold change”: 3.96 (Staphylococcus aureus; label-free quantitative proteomics, item: SAOUHSC_00659 protein; SA113; concentration not given; reference: untreated control).
With N=C(N)NCCC[C@H](NC(=O)[C@H](Cc1c[nH]c2ccccc12)NC(=O)[C@@H](N)CCCNC(=N)N)C(=O)N[C@@H](Cc1c[nH]c2ccccc12)C(=O)N[C@@H](CCC(N)=O)C(=O)N[C@@H](Cc1ccccc1)C(=O)N[C@@H](CCC(N)=O)C(=O)N[C@@H](Cc1ccccc1)C(=O)N[C@@H](CCCCN)C(N)=O the MBC was 19 µM (Bacillus subtilis).
O=C(NC(=O)c1c(F)cccc1F)Nc1ccc(Cl)cc1 gave a mortality of 56.7 ± 5.8% (Plutella xylostella; leaf dipping; 50 mg/L, 96 h).
CS(=O)(=O)OCCN(CCBr)c1c(C(=O)NCCO)cc([N+](=O)[O-])cc1[N+](=O)[O-] has an IC50 of 32500 nM (Homo sapiens; cell viability, resazurin or CellTiter-Glo; sample A BCP-ALL PDX cells, ex vivo).
Cl.N/C(CC(O)c1cc2c(F)cc(F)cc2c2cc(C(F)(F)F)ccc12)=N\c1ccc(F)cc1 (centres unmarked): “mean survival time” 30 days (Plasmodium berghei; Peters test; ANKA, mice; oral, 4 x 50 mg/kg).
O=C(NNc1ccc(F)c(F)c1)c1nnc(CC23CC4CC(CC(C4)C2)C3)o1 gave an inhibition of 100% (Botryosphaeria dothidea; fungal growth, inhibitor; 50 µg/mL).
For Cn1cc(NC(=O)c2cc(NC(=O)CN=C(N)N)cn2C)cc1C(=O)NCCC(=N)N, the cell width was 0.95 µm and 0.94 µm (Bacillus subtilis; bacterial cytological profiling; ATCC 6633; concentration not given).
C[C@H]1COCCN1c1nc(NCc2cccnc2C(F)(F)F)c2cccnc2n1 — result for “median adult worm burden”: 3 worms per mouse (Brugia malayi; SCID mouse; x14d dosing, 6 weeks post-treatment).
COC(=O)N[C@H](C(=O)N1CCC[C@H]1c1ncc(-c2ccc(-c3ccc(-c4cnc([C@@H]5CCCN5C(=O)[C@@H](NC(=O)OC)C(C)C)[nH]4)cc3)cc2)[nH]1)C(C)C gave a combination index of 0.65 and 0.67 (hepatitis C virus; HCV replicon; 90% effect level, with: IFN-α, ratio 2.5:1).
Cl.N=C(CC(O)c1cc2c(F)cc(F)cc2c2cc(C(F)(F)F)ccc12)Nc1ccc(Br)cc1 (centres unmarked): “mean survival time” 21 days (Plasmodium berghei; Peters test; ANKA, mice; oral, 4 x 10 mg/kg).
With CN1CCN(S(=O)(=O)c2cc([N+](=O)[O-])ccc2N(CCOS(C)(=O)=O)CCOS(C)(=O)=O)CC1 the IC50 was 382 nM (Homo sapiens; cell viability, resazurin or CellTiter-Glo; sample A BCP-ALL PDX cells, ex vivo; 48 h).
